Published values of several laboratories.
Parts stem from different laboratories: compare values within a part only.

Set 1 — method: RNA Bind-n-Seq; form: RNA; sample: in vitro; concentration: 365 nM; baseline: no-protein control; reading: higher = stronger binding
Target: RNA binding protein fox-1 homolog 2, RRM domain, GST-SBP tag (RBFOX2, Homo sapiens, UniProt O43251-10, residues 100-194)
Setting: natural RNA segment, single round, ends assumed
Shared flanks, not repeated: GGGAGUUCUACAGUCCGACGAUC … UGGAAUUCUCGGGUGCCAA
Target sequence (chain): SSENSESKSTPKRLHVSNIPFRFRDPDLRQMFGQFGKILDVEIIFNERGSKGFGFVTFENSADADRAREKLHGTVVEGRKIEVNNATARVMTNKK
Oligonucleotide	RBNS enrichment (R)
UUGCACCAAGAAGACAGCCUGAUAGCCCGACAGUUCUGAACUGGAACAUGGGCAUUGGGUUCUAAAGGACUAACAUAAAAUCUGUGAAUUAAAAAAGCUCAAUGCAUUGU	0.297
AAAGUCCCUAAUUCACAACCUCCUUGAUCUUAUGACCCUUGAAAACCUCAAGACCGAAGCCUGACCAUAAGUUGGAAAGCUCUCAUUACCCUCUUUAACAACAUAAAUUC	0.655
CUGAGUGAAGGAAGGGGAGCAAGGGGUGGUGCCCCUGGUCCCAGCAUGCCCCGCGCCUGAGACUGGCUGGAAAUGCUCUGACUCCUGUGAAGGCACAGCCAGCGUUGUGG	21.8
UAACUGAUGAUAAAACUAAUGGCAGAAAACAAAUUGAACAAUUUCUAUGUAAUGUACAGAUACUAGCAUUGCGCAUAUAGUCUGCUUUCUGUUCCUCCAGAAUUUGAGUC	0.465
CUGGCCGCAGGGAGUUGUUCUGCUUCUGCUUUACCUCUCAGGACCAUUCCCAGGAGGAAAAGGUGGCAGAGAGGGCAGUACUGAGUAUGUCAGAAGAGCCCUCCUGGUUU	0.19
AAGACUGAGAAUGUUCCCCCAAAUCUCCUCUGCCAACCAGAGCUCUGGGCACAGAUUCUGGUGGCUCCCUGCUGGCCCUCUUGGGCCUCUGCUCACACCUGGGAAGGGGC	0.668
AGUGUUAGGACGGUUUGAGAGGGAAGGAGAGAGAGAAGAAAGACGAACCACUUGAGACUGAGACUGUCCCCUCCAGCUGUGCUGUACUUCCAGGUGCGCACUUUAAAGAA	0.814
CAGUUACCAGCCUCCUUCCUGCUUCUCUGCCAGGCCACAGAGAAAGCCUUGGAAGGCUGCUUGCUCAUCUCACACCAUGCCUGGGCCAUGCCUUCCUCACCUCUGGAGCA	0.874
CAGAUUUCAGCCCCACCCAGAGUGUGCUCUAGAUGUUGUUGAUUUGAAUGGUUUUCCCAGUUCCCACUCCACAUGGGGAAGUUGAAUGAAUGCACACCUGCUGCUCACUU	0.627
UCUGCACCCCACCCCUCACCCUUGUGCAGGGACAACUCCUUGCCCUGUGUUUCUUGGCCUCUAGACUCUAACAGGCAGAGUCUAGAGUAAGUUUUAGGGUCUGGGCUGAG	0.346
GGCCAGCUGAGUCCAGGACCCUCUCCAGCCCUAUCCCCAUCAAUAAAACUCUGUUUACAUCCACCGGCCCCUUGACUCUGGGUCAGCUGUUUGUUGGGGGUGAUUGGAAA	0.277
AAGCAGCUUCAGGAGAAAAAGAGCAAUUACUUUUGAAUUCUCCAAUAAAUCUGGACAAUGCCGUUAGCGAAGAGCCCUUCCUGGUGAAGGCAAACCCAUGGUCACAGCAG	0.305

Set 2 — method: protein binding microarray; form: double-stranded DNA, one strand shown; sample: in vitro; concentration: not given; baseline: not given; reading: higher = stronger binding
Target: Histone acetyltransferase KAT6A, winged helix 2, GST fusion (KAT6A, Homo sapiens, UniProt Q92794, residues 85-181)
Setting: 8-mer, flanks averaged, mean of 2 arrays, mostly near background
Residues (chain): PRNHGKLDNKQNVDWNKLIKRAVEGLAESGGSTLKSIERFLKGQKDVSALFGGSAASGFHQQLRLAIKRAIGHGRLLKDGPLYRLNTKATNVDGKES
Oligonucleotide	E-score
CATCATTC	-0.163
ACGACCTA	-0.0225
ACAAAGCC	0.0711
AAGGTCGG	0.0638
ATCCCCTG	-0.0419
CTGATAAA	0.121
CTGACCTA	-0.0543
AAAGATAC	0.0448
AGGCACAT	-0.0645
GGCTTCAC	-0.116
CCCTAGCC	-0.0765
GATTCTAC	-0.0437
CTAGAATA	-0.0646
CGAATTAA	0.0835
GTCCCGGA	0.104
AGAAAAGC	0.0302
AGAGACTC	-0.118
CCGGATGA	0.182
GATACCGC	0.0323
GAATTTAC	-0.00791
CGTCAATA	-0.0157
GACTCCAC	-0.199

Set 3 — method: RNA Bind-n-Seq; form: RNA; sample: in vitro; concentration: 1 µM; setting: whole 134-nt RNA, ends assumed; added: 150 mM KCl; baseline: input library; reading: higher = stronger binding
Target: Ras GTPase-activating protein-binding protein 1, RRM domain (G3BP1, Homo sapiens, UniProt Q13283)
Chain of UniProt Q13283 (whole entry, looked up): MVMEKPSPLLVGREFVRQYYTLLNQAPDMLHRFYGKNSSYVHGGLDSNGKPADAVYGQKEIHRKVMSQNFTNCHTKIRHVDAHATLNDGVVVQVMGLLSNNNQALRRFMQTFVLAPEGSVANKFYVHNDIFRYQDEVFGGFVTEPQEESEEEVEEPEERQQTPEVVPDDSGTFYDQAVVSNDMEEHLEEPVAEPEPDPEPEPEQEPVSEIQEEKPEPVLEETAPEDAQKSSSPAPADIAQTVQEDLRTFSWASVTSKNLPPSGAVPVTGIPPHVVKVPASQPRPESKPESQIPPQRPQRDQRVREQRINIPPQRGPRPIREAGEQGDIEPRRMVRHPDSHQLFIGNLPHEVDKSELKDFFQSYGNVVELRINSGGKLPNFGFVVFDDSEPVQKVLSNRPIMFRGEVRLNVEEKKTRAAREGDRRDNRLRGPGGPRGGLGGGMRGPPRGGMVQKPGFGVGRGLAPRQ
Shared flanks, not repeated: GGGAGUUCUACAGUCCGACGAUC … UGGAAUUCUCGGGUGUCAAGG
Oligonucleotide	log2 enrichment
CACAGACAACACGCACCCACACAGACACAGAGGGAAGGGGUUAAAAUGGGGACAGGGUGCACAGCAGGGCGGGGUAGGACCCCAGCCCCU	-0.0943
GUCCUGUGCUACACAUCGUAUGUACCGAAUCGGGGAGGGGUUUUUGGGGAAAAAGGGGAAAGUAUUAUGUUACGCCGUUCGGAUCUGCAC	0.811
UGUGGAUGCCCUGCUGAAGAAGUCUGAGGCCCAGCAUGAACAGCCGGAAGAUGGAUGCCCCUUUGGUGCCCUGACGCAGCGCCUCCUGCA	-0.4
UGGGAGGUGGAUUUUGUUUAUUUUUUUAGCUCAUUUCCAGGGGUGGGAAUUUUUUUUUAAUAUGUGUCAUGAAUAAAUUUGUUUUUGAAA	1.45
CCUCAAGUCCUGUGCUACACAUCGUAUGUACCGAAUCGGUGGAAAAAGGAGGAAAGUAUUAUGUUACGCCGUUCGGAUCUGCACUUCCAG	-0.117
CCUGUGCUACACAUCGUAUGUACCGAAUCGGGGAAAAAGGGGAAAAAAAGGGGAAAGGGGAAAGUAUUAUGUUACGCCGUUCGGAUCUGC	0.586
UCCUGUGCUACACAUCGUAUGUACCGAAUCGGGUUUUUUGGGGUUUUUUGGUUUUUUGGAAAGUAUUAUGUUACGCCGUUCGGAUCUGCA	-0.127
CACAGACAACACGCACCCACACAGACACAGAGGGAAGGGGUUGGGAUGGGGACAAAAUGCACAGCAGGGCGGGGUAGGACCCCAGCCCCU	-0.198
ACCAUGCAGGUGGGCAUCUUUGGGAAGUGGGGCAAGGGGGGGAUAGGAAGGGGGGUAACACUUUGGGAACAGGUGGUCCCAGGUCGUUUC	0.942
UCCUGUGCUACACAUCGUAUGUACCGAAUCGGGUUUUUUGGUUUUUUGGGUUUUUUGGGGAAAGUAUUAUGUUACGCCGUUCGGAUCUGC	-0.201

Set 4 — method: universal PBM; form: double-stranded DNA, one strand shown; sample: in vitro; concentration: 600 nM; reading: higher = stronger binding
Target: Sal-like protein 4, full length isoform A (SALL4, Homo sapiens, UniProt Q9UJQ4, residues 1-1053)
Chain of UniProt Q9UJQ4 (whole entry, looked up): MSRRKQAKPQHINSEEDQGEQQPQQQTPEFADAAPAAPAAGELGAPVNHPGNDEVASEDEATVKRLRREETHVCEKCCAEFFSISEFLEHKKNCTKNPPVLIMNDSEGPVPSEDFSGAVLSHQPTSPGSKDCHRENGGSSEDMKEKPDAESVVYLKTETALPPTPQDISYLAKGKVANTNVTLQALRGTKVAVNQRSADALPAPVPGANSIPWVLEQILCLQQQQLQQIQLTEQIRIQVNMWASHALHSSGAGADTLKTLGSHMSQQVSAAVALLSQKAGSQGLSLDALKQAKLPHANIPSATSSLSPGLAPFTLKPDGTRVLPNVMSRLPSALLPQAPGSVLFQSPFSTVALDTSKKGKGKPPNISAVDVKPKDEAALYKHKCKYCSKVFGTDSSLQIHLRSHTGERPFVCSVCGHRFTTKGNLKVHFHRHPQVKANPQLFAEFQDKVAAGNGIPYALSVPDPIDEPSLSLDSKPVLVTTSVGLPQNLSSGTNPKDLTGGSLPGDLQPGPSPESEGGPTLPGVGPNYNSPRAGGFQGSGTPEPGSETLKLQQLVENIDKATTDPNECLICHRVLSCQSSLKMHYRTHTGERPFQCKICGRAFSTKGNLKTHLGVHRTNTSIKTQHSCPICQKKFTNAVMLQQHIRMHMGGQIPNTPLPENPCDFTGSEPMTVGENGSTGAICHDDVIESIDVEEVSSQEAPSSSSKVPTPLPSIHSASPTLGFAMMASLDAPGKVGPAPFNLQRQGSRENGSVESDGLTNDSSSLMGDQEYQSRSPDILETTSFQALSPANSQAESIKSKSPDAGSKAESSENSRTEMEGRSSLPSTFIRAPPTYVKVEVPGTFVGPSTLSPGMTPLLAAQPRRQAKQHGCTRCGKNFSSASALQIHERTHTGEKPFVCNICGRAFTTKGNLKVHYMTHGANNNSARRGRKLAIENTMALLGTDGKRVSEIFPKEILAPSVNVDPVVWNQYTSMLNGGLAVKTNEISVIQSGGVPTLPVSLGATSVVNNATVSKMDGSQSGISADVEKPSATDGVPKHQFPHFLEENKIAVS
Setting: 8-mer, flanks averaged, mean of replicates
Oligonucleotide	E-score
ACCTACTA	0.163
CTCTTGCC	-0.105
CAGTGCCA	-0.228
AAATATCC	0.274
AGCTCGAT	-0.0126
AGACTGCA	-0.107
AACGCGAC	-0.237
AAAAAGCT	0.198
ATCTCCAG	-0.0182
AAGATATT	0.302
ACCCGAAC	-0.0935
ACAATCGC	0.0328
CGGCATAG	-0.0334
AGAGGCCG	-0.328
GACGACAC	-0.115
ATTTATTG	0.344
GTAAGTGA	0.0914
AGCACTAA	0.109
CCGGGTTC	-0.364
AGGCTTAC	-0.177
GCTCTAAC	-0.0974
CTAGTCAC	0.0759
ACACTCAA	0.193
CCTATGAC	0.0912
TAATTTCA	0.323

Repeated from above (set 4):
Oligonucleotide	E-score
CGGCATAG	-0.0334
AAAAAGCT	0.198
GTAAGTGA	0.0914
AAATATCC	0.274
CCGGGTTC	-0.364
